Measured values of several laboratories.
Parts stem from different laboratories: compare values within a part only.
UniProt Q15375, sequence (whole entry, looked up): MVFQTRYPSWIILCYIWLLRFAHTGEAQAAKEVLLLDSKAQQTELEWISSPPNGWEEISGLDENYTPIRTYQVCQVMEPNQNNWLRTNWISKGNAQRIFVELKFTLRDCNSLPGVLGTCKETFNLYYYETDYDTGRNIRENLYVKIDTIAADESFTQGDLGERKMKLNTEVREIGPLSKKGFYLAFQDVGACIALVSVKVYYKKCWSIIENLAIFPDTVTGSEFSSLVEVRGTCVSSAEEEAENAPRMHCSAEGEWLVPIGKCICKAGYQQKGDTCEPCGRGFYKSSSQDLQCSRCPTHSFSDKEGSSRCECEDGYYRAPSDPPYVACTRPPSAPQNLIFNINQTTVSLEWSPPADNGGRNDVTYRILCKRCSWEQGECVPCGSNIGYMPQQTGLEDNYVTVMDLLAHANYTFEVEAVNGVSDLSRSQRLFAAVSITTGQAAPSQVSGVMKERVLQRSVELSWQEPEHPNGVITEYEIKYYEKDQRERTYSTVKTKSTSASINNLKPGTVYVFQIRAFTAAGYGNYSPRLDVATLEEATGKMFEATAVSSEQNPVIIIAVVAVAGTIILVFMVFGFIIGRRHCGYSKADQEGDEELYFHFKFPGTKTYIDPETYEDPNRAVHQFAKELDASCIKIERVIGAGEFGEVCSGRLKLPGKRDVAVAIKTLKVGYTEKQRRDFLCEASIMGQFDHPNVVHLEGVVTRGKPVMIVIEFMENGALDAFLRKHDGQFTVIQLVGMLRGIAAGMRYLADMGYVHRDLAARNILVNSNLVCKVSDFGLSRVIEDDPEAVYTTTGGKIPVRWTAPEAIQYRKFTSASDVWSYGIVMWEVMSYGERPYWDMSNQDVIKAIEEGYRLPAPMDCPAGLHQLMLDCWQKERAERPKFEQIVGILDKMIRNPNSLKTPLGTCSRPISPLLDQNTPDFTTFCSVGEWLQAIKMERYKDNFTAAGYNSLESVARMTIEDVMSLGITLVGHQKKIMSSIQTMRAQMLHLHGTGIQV
UniProt Q56UN5, sequence (whole entry, looked up): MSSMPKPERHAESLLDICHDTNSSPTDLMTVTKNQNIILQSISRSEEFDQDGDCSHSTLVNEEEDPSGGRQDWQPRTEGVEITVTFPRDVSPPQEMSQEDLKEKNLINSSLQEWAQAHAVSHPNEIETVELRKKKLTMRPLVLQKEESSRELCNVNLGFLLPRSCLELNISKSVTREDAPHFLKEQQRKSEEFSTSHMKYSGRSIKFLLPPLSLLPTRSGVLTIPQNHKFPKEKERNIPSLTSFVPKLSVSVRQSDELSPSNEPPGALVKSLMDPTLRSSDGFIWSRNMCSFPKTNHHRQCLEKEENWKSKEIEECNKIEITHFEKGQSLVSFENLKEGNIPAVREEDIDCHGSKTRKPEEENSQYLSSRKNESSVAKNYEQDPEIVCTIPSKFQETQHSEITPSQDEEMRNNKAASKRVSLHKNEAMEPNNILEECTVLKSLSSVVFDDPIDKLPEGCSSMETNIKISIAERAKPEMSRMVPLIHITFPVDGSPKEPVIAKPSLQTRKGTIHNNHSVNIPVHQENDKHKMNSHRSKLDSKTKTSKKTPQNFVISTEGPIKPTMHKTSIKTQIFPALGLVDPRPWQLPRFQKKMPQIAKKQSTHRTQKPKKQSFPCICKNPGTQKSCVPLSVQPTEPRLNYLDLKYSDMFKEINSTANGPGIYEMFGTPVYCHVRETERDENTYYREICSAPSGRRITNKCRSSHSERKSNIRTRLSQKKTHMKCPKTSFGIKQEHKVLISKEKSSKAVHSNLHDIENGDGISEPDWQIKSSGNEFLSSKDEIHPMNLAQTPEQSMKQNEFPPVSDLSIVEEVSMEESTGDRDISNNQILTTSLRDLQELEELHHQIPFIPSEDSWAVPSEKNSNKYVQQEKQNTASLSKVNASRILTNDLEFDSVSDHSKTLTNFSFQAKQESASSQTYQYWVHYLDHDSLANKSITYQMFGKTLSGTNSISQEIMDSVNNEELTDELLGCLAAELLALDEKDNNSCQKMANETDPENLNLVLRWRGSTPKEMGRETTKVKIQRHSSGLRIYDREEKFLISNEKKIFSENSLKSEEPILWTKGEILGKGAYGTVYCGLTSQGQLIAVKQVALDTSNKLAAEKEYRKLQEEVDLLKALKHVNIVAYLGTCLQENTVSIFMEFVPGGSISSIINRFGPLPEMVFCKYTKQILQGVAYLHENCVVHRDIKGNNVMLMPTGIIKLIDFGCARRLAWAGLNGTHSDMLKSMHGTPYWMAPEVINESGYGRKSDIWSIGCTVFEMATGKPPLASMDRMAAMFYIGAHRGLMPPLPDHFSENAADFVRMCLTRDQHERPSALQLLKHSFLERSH
UniProt P43250, sequence (whole entry, looked up): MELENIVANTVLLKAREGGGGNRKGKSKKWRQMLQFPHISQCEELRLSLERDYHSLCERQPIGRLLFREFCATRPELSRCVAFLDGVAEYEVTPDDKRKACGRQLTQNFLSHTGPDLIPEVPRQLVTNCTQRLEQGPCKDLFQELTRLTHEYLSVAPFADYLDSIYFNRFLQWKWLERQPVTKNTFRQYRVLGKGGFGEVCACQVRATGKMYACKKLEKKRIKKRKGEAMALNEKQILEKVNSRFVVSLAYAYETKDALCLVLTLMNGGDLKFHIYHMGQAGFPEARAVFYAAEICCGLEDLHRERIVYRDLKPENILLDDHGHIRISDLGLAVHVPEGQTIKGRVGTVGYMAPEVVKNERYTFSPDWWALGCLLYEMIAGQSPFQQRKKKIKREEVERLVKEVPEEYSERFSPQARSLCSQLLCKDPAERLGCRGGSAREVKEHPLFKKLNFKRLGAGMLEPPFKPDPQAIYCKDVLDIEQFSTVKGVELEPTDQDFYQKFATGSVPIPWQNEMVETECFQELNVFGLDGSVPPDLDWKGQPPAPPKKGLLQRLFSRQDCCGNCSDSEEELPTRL
UniProt P43403, sequence (whole entry, looked up): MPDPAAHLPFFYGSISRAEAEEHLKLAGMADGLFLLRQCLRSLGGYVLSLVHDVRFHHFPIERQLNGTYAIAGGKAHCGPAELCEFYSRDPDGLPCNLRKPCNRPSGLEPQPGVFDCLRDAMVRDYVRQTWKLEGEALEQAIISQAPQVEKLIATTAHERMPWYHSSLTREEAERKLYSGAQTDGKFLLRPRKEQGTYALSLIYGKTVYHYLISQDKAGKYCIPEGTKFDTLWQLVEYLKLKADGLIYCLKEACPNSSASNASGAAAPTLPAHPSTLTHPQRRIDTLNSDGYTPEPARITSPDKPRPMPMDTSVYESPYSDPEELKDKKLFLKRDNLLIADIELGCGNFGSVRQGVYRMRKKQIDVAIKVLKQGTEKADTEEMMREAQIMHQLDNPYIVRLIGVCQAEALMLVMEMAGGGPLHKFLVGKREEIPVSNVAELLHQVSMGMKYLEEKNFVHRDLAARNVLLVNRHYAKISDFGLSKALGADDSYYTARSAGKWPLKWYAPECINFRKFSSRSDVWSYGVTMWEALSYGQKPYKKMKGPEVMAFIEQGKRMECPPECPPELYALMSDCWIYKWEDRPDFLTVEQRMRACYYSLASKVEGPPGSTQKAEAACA
UniProt Q99755, sequence (whole entry, looked up): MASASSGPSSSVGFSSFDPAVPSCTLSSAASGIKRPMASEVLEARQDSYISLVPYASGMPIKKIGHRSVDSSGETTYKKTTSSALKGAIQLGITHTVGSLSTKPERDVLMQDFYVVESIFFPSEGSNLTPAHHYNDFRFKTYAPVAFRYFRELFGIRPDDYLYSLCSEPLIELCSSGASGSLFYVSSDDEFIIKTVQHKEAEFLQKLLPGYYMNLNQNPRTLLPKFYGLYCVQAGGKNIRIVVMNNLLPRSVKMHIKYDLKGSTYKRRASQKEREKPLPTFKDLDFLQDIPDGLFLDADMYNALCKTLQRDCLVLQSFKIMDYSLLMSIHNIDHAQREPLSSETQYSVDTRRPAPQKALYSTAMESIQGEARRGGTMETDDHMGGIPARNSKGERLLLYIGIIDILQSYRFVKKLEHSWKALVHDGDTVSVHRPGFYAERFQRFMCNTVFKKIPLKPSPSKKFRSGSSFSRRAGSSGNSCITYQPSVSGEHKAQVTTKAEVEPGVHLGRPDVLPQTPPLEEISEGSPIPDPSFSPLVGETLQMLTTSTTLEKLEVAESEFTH
UniProt P41240, sequence (whole entry, looked up): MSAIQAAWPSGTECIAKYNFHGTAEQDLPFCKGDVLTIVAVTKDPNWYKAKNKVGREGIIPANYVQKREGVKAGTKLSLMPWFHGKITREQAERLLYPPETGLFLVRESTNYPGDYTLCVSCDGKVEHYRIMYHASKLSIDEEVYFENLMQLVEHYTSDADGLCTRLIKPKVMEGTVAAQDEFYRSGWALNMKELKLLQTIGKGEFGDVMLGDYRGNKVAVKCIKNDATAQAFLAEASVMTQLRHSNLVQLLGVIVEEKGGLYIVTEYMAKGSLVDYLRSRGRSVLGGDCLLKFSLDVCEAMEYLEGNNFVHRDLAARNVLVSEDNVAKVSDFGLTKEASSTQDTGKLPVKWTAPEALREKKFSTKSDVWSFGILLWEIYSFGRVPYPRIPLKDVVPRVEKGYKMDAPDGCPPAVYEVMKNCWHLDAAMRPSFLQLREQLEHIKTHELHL

Block 1
Target: Calcium/calmodulin-dependent protein kinase type II subunit alpha (CAMK2A, Homo sapiens, UniProt Q9UQM7)
UniProt Q9UQM7, sequence (whole entry, looked up): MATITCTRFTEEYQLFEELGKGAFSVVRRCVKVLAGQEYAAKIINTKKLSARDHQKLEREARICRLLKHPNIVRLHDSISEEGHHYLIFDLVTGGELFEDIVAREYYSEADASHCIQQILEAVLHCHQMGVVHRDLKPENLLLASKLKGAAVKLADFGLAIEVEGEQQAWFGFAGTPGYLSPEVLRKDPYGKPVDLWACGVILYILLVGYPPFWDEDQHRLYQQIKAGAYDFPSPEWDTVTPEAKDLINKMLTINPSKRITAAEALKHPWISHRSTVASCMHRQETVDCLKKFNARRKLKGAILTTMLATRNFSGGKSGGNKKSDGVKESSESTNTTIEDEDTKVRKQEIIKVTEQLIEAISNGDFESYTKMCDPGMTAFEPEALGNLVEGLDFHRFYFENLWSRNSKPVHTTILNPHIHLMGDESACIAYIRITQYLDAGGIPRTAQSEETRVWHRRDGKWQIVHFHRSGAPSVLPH
Read-out: enzyme activity
Mode: inhibitor
Tested at: 10 µM
`CC(=O)O[C@H]1[C@H]2[C@H]([C@@H]3[C@H]4OC(=O)[C@@](C)(O)[C@@]5(C)C(=O)C[C@@H](C)[C@@H]([C@@H]45)[C@@]3(C)[C@H]1OC(C)=O)[C@@H](OC(C)=O)C(=O)[C@H]1C[C@@H]3O[C@@H]3[C@H](OC(C)=O)[C@]21C` has an inhibition of -59%.
The inhibition of `C[C@@H](CN)C(=O)O` is reported as 17%.
`C[C@H]1C(=O)CC[C@@H]2[C@]1(C)CC[C@H]1[C@@]2(C)CC[C@@]2(C)[C@@H]3CC(C)(C)CC[C@]3(C)CC[C@]12C` gave an inhibition of -52%.
`O=C(O)CN(CCN(CC(=O)O)CC(=O)O)CCN(CC(=O)O)CC(=O)O` has an inhibition of 9%.
The inhibition of `CO/N=C(\C(=O)N[C@@H]1C(=O)N2C(C(=O)O)=C(/C=C\c3scnc3C)CS[C@H]12)c1csc(N)n1` is reported as -1%.
With `O=C(O)[C@@H]1C[C@@H](O)CN1` the inhibition was 4%.
The inhibition of `O=C(O)[C@@H]1CCCN1` is reported as 2%.

Block 2
SMILES: O=C1NC(=O)c2c1c1c3ccccc3[nH]c1n1cncc21
Read-out: enzyme activity
Mode: inhibitor
Tested at: 0.5 µM
Reference: control
For Serine/threonine-protein kinase PAK 2 (PAK2, Homo sapiens, UniProt Q13177): remaining activity read 99%.
For Serine/threonine-protein kinase Sgk1 (SGK1, Homo sapiens, UniProt O00141): remaining activity read 69%.
It gave 15.5% for remaining activity (Myosin light chain kinase, smooth muscle (MYLK, Homo sapiens, UniProt Q15746)).
Cytoplasmic tyrosine-protein kinase BMX (BMX, Homo sapiens, UniProt P51813) — remaining activity: 91.7%.
Receptor-type tyrosine-protein kinase FLT3 (FLT3, Homo sapiens, UniProt P36888) — remaining activity: 9.86%.
For Tyrosine-protein kinase CSK (CSK, Homo sapiens, UniProt P41240): remaining activity read 83.3%.
It gave 117% for remaining activity (Protein kinase C gamma type (PRKCG, Homo sapiens, UniProt P05129)).
Ephrin type-B receptor 2 (EPHB2, Homo sapiens, UniProt P29323) — remaining activity: 86.1%.
It gave 82.1% for remaining activity (G protein-coupled receptor kinase 6 (GRK6, Homo sapiens, UniProt P43250)).
For Ephrin type-A receptor 7 (EPHA7, Homo sapiens, UniProt Q15375): remaining activity read 78.8%.
It gave 84.9% for remaining activity (Protein kinase C epsilon type (PRKCE, Homo sapiens, UniProt Q02156)).
The remaining activity was 78.6% (Fibroblast growth factor receptor 4 (FGFR4, Homo sapiens, UniProt P22455)).
It gave 34.4% for remaining activity (Serine/threonine-protein kinase pim-2 (PIM2, Homo sapiens, UniProt Q9P1W9)).
For Ribosomal protein S6 kinase beta-1 (RPS6KB1, Homo sapiens, UniProt P23443): remaining activity read 70.6%.
It gave 12.1% for remaining activity (NUAK family SNF1-like kinase 1 (NUAK1, Homo sapiens, UniProt O60285)).
SRSF protein kinase 3 (SRPK3, Homo sapiens, UniProt Q9UPE1) — remaining activity: 75.7%.
Ribosomal protein S6 kinase alpha-1 (RPS6KA1, Homo sapiens, UniProt Q15418) — remaining activity: 31.1%.
It gave 107% for remaining activity (Beta-adrenergic receptor kinase 1 (GRK2, Homo sapiens, UniProt P25098)).
It gave 47.6% for remaining activity (Aurora kinase C (AURKC, Homo sapiens, UniProt Q9UQB9)).
It gave 64.9% for remaining activity (Macrophage colony-stimulating factor 1 receptor (CSF1R, Homo sapiens, UniProt P07333)).

Block 3
Compound: CS(=O)(=O)N1CCCC(NC(=O)[C@H](CCC2CCCCC2)NC(=O)c2ccc(CNC(=O)c3cnc4ccccn34)cc2)C1 (some centres unmarked)
Technique: competition with immobilised ligand
For Receptor-type tyrosine-protein kinase FLT3 (FLT3, Homo sapiens, UniProt P36888, N841I); cell-free assay; 0.1 µM: remaining binding read 67%.
For Ephrin type-A receptor 1 (EPHA1, Homo sapiens, UniProt P21709); cell-free assay; 0.1 µM: remaining binding read 93%.
It gave 100% for remaining binding (Dual specificity tyrosine-phosphorylation-regulated kinase 2 (DYRK2, Homo sapiens, UniProt Q92630); cell-free assay; 0.1 µM).
For Phosphatidylinositol 3-kinase C2 domain-containing subunit gamma (PIK3C2G, Homo sapiens, UniProt O75747); cell-free assay; 0.1 µM: remaining binding read 100%.
The remaining binding was 47% (Serine/threonine-protein kinase B-raf (BRAF, Homo sapiens, UniProt P15056); cell-free assay; 0.1 µM).
The remaining binding was 100% (Homeodomain-interacting protein kinase 1 (HIPK1, Homo sapiens, UniProt Q86Z02); cell-free assay; 0.1 µM).
It gave 100% for remaining binding (Ephrin type-A receptor 5 (EPHA5, Homo sapiens, UniProt P54756); cell-free assay; 0.1 µM).
It gave 100% for remaining binding (NUAK family SNF1-like kinase 2 (NUAK2, Homo sapiens, UniProt Q9H093); cell-free assay; 0.1 µM).
For Phosphatidylinositol 4-phosphate 5-kinase type-1 alpha (PIP5K1A, Homo sapiens, UniProt Q99755); cell-free assay; 0.1 µM: remaining binding read 89%.
Phosphatidylinositol 4-phosphate 5-kinase type-1 gamma (PIP5K1C, Homo sapiens, UniProt O60331); cell-free assay; 0.1 µM — remaining binding: 100%.
It gave 80% for remaining binding (Cyclin-dependent kinase 17 (CDK17, Homo sapiens, UniProt Q00537); cell-free assay; 0.1 µM).
For Cyclin-dependent kinase 2 (CDK2, Homo sapiens, UniProt P24941); cell-free assay; 0.1 µM: remaining binding read 88%.
For Serine/threonine-protein kinase TAO1 (TAOK1, Homo sapiens, UniProt Q7L7X3); cell-free assay; 0.1 µM: remaining binding read 88%.
Serine/threonine-protein kinase 38-like (STK38L, Homo sapiens, UniProt Q9Y2H1); binding; 1 µM — remaining binding: 40%.
For Casein kinase II subunit alpha' (CSNK2A2, Homo sapiens, UniProt P19784); cell-free assay; 0.1 µM: remaining binding read 100%.
It gave 100% for remaining binding (Cyclin-dependent kinase 7 (CDK7, Homo sapiens, UniProt P50613); cell-free assay; 0.1 µM).
For Serine/threonine-protein kinase DCLK2 (DCLK2, Homo sapiens, UniProt Q8N568); cell-free assay; 0.1 µM: remaining binding read 100%.
The remaining binding was 100% (Tyrosine-protein kinase ZAP-70 (ZAP70, Homo sapiens, UniProt P43403); cell-free assay; 0.1 µM).
Tyrosine-protein kinase ABL1, non-phosphorylated (ABL1, Homo sapiens, UniProt P00519, F317I); binding; 0.1 µM — remaining binding: 80%.
BDNF/NT-3 growth factors receptor (NTRK2, Homo sapiens, UniProt Q16620); cell-free assay; 0.1 µM — remaining binding: 87%.
It gave 100% for remaining binding (Mitogen-activated protein kinase 8 (MAPK8, Homo sapiens, UniProt P45983); cell-free assay; 0.1 µM).
The remaining binding was 71% (Mitogen-activated protein kinase kinase kinase 19 (MAP3K19, Homo sapiens, UniProt Q56UN5); cell-free assay; 0.1 µM).

Block 4
Cell line: mouse MPNST tumor cells
Technique: high-content immunofluorescence imaging
Measured: nuclear SOX9
Tested at: 10 µM
Time: 12 h
Setting: mean of 2 replicates
Reference: DMSO control
Direction: higher = more nuclear SOX9
For `Cc1cccc(NC(=O)CN2CCC(c3ccccn3)CC2)c1`, “nuclear SOX9 intensity” read 97 % of DMSO.
`COc1cc(N2CCOCC2)ccc1Nc1ncc(Cl)c(Nc2ccccc2NS(C)(=O)=O)n1`: “nuclear SOX9 intensity” 115 % of DMSO.
`CC(C)(C)c1cc(C(C)(C)C)nc(N2CCn3c(nnc3-c3ccc(OC(F)(F)F)cc3)C2)n1` — result for “nuclear SOX9 intensity”: 120 % of DMSO.
`CC(=Nc1ccccc1N)c1c(C)cc(=O)n(O)c1O`: “nuclear SOX9 intensity” 99.2 % of DMSO.
Under “nuclear SOX9 intensity”, `CCNC1(C(N)=O)CCN(c2ncnc3c2nc(-c2ccccc2Cl)n3-c2ccc(Cl)cc2)CC1` is recorded as 162 % of DMSO.
`C=C1/C(=C\C=C2/CCC[C@]3(C)[C@@H]([C@H](C)/C=C/[C@@H](O)C4CC4)CC[C@@H]23)C[C@@H](O)C[C@@H]1O` — result for “nuclear SOX9 intensity”: 96.6 % of DMSO.
For `C[C@@H](CN1CCC(Cc2ccccc2)CC1)[C@@H](O)c1ccc(O)cc1`, “nuclear SOX9 intensity” read 103 % of DMSO.
Under “nuclear SOX9 intensity”, `Cn1cnc2c1c(=O)[nH]c(=O)n2C` is recorded as 99.8 % of DMSO.
`C=C(C)[C@@H]1CC[C@]2(C(=O)O)CC[C@]3(C)[C@H](CC[C@@H]4[C@@]5(C)CC[C@H](O)C(C)(C)[C@@H]5CC[C@]43C)[C@@H]12`: “nuclear SOX9 intensity” 99.5 % of DMSO.
`CCc1ccc(/C=C2/SC(=S)NC2=O)cc1` — result for “nuclear SOX9 intensity”: 100 % of DMSO.
`NS(=O)(=O)c1nn2cc(-c3ccccc3)nc2s1` — result for “nuclear SOX9 intensity”: 82.7 % of DMSO.
`COc1c(C)c2c(c(O)c1C/C=C(\C)CCC(=O)O)C(=O)OC2`: “nuclear SOX9 intensity” 94.6 % of DMSO.
`CC(=O)[C@H]1CC[C@H]2[C@@H]3C[C@H](C)C4=CC(=O)CC[C@]4(C)[C@H]3[C@@H](O)C[C@]12C` — result for “nuclear SOX9 intensity”: 84.9 % of DMSO.
Under “nuclear SOX9 intensity”, `Cc1cccc(C)c1OCC(=O)N[C@@H](Cc1ccccc1)[C@@H](O)C[C@H](Cc1ccccc1)NC(=O)[C@H](C(C)C)N1CCCNC1=O` is recorded as 100 % of DMSO.
Under “nuclear SOX9 intensity”, `c1ccc2c(CC3=NCCN3)cccc2c1` is recorded as 99.3 % of DMSO.
For `CCC(CC=Cc1ccccc1)(c1ccccc1)N(C)CC1CC1` (single isomer, unassigned; (+)), “nuclear SOX9 intensity” read 106 % of DMSO.
`Cc1ccc(C)c(OCCCC(C)(C)C(=O)O)c1` — result for “nuclear SOX9 intensity”: 136 % of DMSO.
`O=C(O)c1cc(-c2ccc(C3CCNCC3)cc2)c2ccc(-c3ccc(C(F)(F)F)cc3)cc2c1`: “nuclear SOX9 intensity” 163 % of DMSO.
Under “nuclear SOX9 intensity”, `CCOc1ccc(NC(=O)CC(C)O)cc1` (centres unmarked) is recorded as 91.3 % of DMSO.

A few entries again (block 4):
For `Cc1cccc(NC(=O)CN2CCC(c3ccccn3)CC2)c1`, “nuclear SOX9 intensity” read 97 % of DMSO.
`COc1cc(N2CCOCC2)ccc1Nc1ncc(Cl)c(Nc2ccccc2NS(C)(=O)=O)n1`: “nuclear SOX9 intensity” 115 % of DMSO.
`CC(C)(C)c1cc(C(C)(C)C)nc(N2CCn3c(nnc3-c3ccc(OC(F)(F)F)cc3)C2)n1` — result for “nuclear SOX9 intensity”: 120 % of DMSO.
`CC(=Nc1ccccc1N)c1c(C)cc(=O)n(O)c1O`: “nuclear SOX9 intensity” 99.2 % of DMSO.
Under “nuclear SOX9 intensity”, `CCNC1(C(N)=O)CCN(c2ncnc3c2nc(-c2ccccc2Cl)n3-c2ccc(Cl)cc2)CC1` is recorded as 162 % of DMSO.
`C=C1/C(=C\C=C2/CCC[C@]3(C)[C@@H]([C@H](C)/C=C/[C@@H](O)C4CC4)CC[C@@H]23)C[C@@H](O)C[C@@H]1O` — result for “nuclear SOX9 intensity”: 96.6 % of DMSO.
For `C[C@@H](CN1CCC(Cc2ccccc2)CC1)[C@@H](O)c1ccc(O)cc1`, “nuclear SOX9 intensity” read 103 % of DMSO.
Under “nuclear SOX9 intensity”, `Cn1cnc2c1c(=O)[nH]c(=O)n2C` is recorded as 99.8 % of DMSO.
`C=C(C)[C@@H]1CC[C@]2(C(=O)O)CC[C@]3(C)[C@H](CC[C@@H]4[C@@]5(C)CC[C@H](O)C(C)(C)[C@@H]5CC[C@]43C)[C@@H]12`: “nuclear SOX9 intensity” 99.5 % of DMSO.
`CCc1ccc(/C=C2/SC(=S)NC2=O)cc1` — result for “nuclear SOX9 intensity”: 100 % of DMSO.
`NS(=O)(=O)c1nn2cc(-c3ccccc3)nc2s1` — result for “nuclear SOX9 intensity”: 82.7 % of DMSO.
